Assay results gathered from unrelated publications.
Numbered parts are unrelated; each lists some results of a single study. Substitutions count along the parent as printed.

Sample 1
Target: Histone acetyltransferase KAT6A, both winged helices, GST fusion (KAT6A, Homo sapiens, UniProt Q92794, residues 1-181)
Method: protein binding microarray
Molecule type: double-stranded DNA, one strand shown
Matrix: in vitro
Tested at: not given
Setting: 8-mer, flanks averaged, mean of 2 arrays, mostly near background
Reference: not given
Reading: higher = stronger binding
Residues (chain): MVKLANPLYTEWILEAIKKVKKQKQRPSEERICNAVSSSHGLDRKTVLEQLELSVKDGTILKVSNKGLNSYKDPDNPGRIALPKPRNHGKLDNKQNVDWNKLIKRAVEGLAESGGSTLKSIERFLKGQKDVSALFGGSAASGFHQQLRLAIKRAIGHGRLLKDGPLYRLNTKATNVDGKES
| Sequence | E-score |
| --- | --- |
| AGCCGATA | 0.00514 |
| ACCCCGTG | 0.196 |
| TATTTCCA | -0.218 |
| GATCAAAA | -0.0674 |
| CAGTTTAC | -0.00983 |
| CACTCGGA | 0.0298 |
| ATCAACTA | -0.135 |
| CTTCAGAA | -0.019 |
| CAGCATTC | -0.0803 |
| CGAATAGA | -0.0849 |
| ACAACATC | 0.0076 |
| AAAACAAT | 0.0386 |
| GGGTGAAC | 0.0309 |
| CGATCCAA | 0.0166 |
| TACCATCA | -0.168 |
| GATGTTCA | -0.0155 |
| AACAAATC | -0.0663 |
| ATTAGAAG | -0.105 |
| AATGACGC | 0.13 |
| AAACTTAG | -0.161 |
| CCCACATA | -0.053 |
| GCCTAGTA | -0.0556 |

Sample 2
Target: RING finger protein unkempt homolog, zinc fingers 1-6, GST-SBP tag (UNK, Homo sapiens, UniProt Q9C0B0, residues 30-357)
UniProt Q9C0B0, sequence (30-357, looked up): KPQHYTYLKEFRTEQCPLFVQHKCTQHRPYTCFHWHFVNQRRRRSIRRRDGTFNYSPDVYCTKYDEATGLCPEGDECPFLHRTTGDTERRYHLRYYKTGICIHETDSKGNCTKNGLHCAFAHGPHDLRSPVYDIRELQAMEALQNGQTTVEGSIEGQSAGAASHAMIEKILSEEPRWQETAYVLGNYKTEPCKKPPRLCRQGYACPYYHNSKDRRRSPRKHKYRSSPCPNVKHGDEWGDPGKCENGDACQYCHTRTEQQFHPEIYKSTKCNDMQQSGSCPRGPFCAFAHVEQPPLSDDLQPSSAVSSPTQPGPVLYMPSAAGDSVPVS
Method: RNA Bind-n-Seq
Molecule type: RNA
Matrix: in vitro
Tested at: not given
Setting: RNA with constant flanks, human and mouse sites, ends assumed
Reference: input RNA pool
Reading: higher = stronger binding
| Sequence | bound/input enrichment [ratio] |
| --- | --- |
| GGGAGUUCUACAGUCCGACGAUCAUUUAAUAUUGCUUCUCCUGCAUGGCGAAACUGCCUAUUCUGCUAUUUAAAACCCUCAUAAAUUUAUUUUCUACUGCCGCUUUUUCAUGUGCAGCCAAAAUGGAAAUGUUUAAAUUAACUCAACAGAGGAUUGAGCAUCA | 0.657 |
| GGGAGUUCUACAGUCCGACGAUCGCCAUCAACCGCCAGAUCAACCUGGAGUUGUAUGCCUCCUACGUCUAUCUGUCUAUGUCUUGUUAUUUUGACCGAGAUGAUGUGGCUCUGAAGAACUUUGCCAAAUACUUUCUCCACCAACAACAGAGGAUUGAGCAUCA | 0.346 |
| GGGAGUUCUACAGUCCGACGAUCUUUUAUGAACGACUGGCAGGCCAUGGCCCUAAACUAGGACCUGUCACCAGGAAGUAUCCUUUAGUUACCAGGUAUUUUACUUUCCCCUUUGGAGAAAUGGCCUUAUCCGCAGAGGAAGCCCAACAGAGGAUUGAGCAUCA | 1.07 |
| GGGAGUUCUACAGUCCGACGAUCCAAUAUUUGUACAUUAUGUGAUUUAUGUUUUUUUGAUGUCAACAGUUUGUGAUUUGAGUGAAGUAUUUGUAAACUGCUGUUUUCUGCACUAUUCCUGUUCACACUUCAUCGUGUGGUCAGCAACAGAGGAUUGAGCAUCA | 0.488 |
| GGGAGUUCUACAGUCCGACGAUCAUAUGAUCUUCUGCUCUUCCCAGGUCCCUUUCUCCCGCUCCCCCACUUGCCCUUUGCUGGUAGUAGCCAUGCUCCUGUGCUCCUCAUCCGUGGGGACAGGGCUUGGAGCAGUCACCCUUUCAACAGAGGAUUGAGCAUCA | 0.265 |
| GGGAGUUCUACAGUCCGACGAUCACCAAACUCUUUCUGAUUUUGGCAAAAAAGUUCCCCCACGUGCAGACUGAUGUGCUUGUGCGAGUCAAGGGGCCCUUGCUGGCCGCCUGCUCUUCAGAGAGCCGUGAGCUCUGUUUUGCUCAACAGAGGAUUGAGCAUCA | 0.189 |
| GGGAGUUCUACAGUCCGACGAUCGGAGAGGAAUACUAAAGUUAAAACGUCACAAAGGUGCUGCUUUUACAGGGAAGCUUAUUCUGUUUUAAACAUUGAAAAGUUGUGGUCUGAUCAGUUAAUUUGUAUGUAGCAGUGUAUGCUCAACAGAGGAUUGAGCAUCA | 2.17 |
| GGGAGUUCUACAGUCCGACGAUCUUGAACUUGCAGAAGACUUUUAAGCCAGCUAUACAAGAACUGAAGCCACCAACCUAUAAGCUAAUGACUCAGGCACAGUUGGAAGAGGCUACAAGACAGGCAGUUGAGGCAGCUAAAGUACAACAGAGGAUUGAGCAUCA | 0.266 |
| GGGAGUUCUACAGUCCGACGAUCGCCAUCGCUCUUAUGGGCUACAGGUUGAGUCCACAGACAUUAGCUGCAAUUGUCAGACGCUACAGCAAGAAUGGCCGGAUUUUCUUUGAUGACUAUGUUGCCUGCUGUGUGAAGCUGCGCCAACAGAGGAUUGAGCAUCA | 0.142 |
| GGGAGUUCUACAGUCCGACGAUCUUGGUGACUAUUAUGUAUGGUUAUAAAUUGAGAGACUUAUACAGAAACAAUUUUGAAGAUCUUCAUUGCAAAUUCUAUCAACUUGAGAAACUAAUGCAGGAACAGCUGCCAGACCUGUACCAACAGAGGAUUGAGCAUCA | 0.226 |
| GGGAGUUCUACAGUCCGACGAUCGAUCUUGCUCUGUAGCCUAGGCUAGUCUUGAAUUUGUAAGCUCUUGAGACUGAUUGACCCUCUUACCUGACUCUUCUCCUUUAAAGUAUUCCAGUUGACGUAUUGUGUCGUAGGCACAUCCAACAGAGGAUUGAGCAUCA | 0.399 |

Sample 3
Target: Interferon regulatory factor 7, full length, phosphomimetic (IRF7, Homo sapiens, UniProt Q92985, residues 1-503, S101K/S471D/S472D/S475D/S476D/S477D/S483D/S484D/S487D)
UniProt Q92985, sequence (whole entry, unmodified, looked up): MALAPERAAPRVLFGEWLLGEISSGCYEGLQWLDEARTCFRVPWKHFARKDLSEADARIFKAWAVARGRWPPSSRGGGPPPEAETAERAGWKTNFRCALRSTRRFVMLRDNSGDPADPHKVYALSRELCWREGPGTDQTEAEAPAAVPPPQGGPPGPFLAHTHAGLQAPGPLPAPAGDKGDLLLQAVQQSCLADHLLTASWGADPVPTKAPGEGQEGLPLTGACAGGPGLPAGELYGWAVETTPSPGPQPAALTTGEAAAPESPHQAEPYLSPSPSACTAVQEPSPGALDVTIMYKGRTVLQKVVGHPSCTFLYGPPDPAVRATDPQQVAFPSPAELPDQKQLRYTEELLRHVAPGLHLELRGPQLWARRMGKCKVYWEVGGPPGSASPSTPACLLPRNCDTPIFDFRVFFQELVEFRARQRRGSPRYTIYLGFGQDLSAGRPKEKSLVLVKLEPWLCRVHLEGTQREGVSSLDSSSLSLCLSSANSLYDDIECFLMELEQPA
Method: protein-binding microarray
Molecule type: double-stranded DNA, one strand shown
Matrix: in vitro
Tested at: 250 nM
Setting: 60-bp whole probe
With: salmon DNA 0.4 mg/ml
Reference: random background probes
Reading: higher = stronger binding
Shared flanks, not repeated: GCCTAGCAC … GTCTTGATTCGCTTGACGCTGCTG
| Sequence | log fluorescence |
| --- | --- |
| TTAGGTATCGTCTTTCGGTTAGTGCTA | 1.85 z-score |
| TACTTTCTATGTCTGTTTTTGTGCTAG | 2.34 z-score |
| TTAGATAACAGTATCGATTAGTGCTAG | 0.993 z-score |
| ACTCGTGACCCTCTCAAAGGGTGCTAG | -0.301 z-score |
| GGCGAACTGGGGTATCGAGACGTGCTA | -0.965 z-score |
| TCAGATTTCTTCCCTGTGACTGTGCTA | 0.144 z-score |
| GACGATATCATTTTCGAGACGTGCTAG | 0.656 z-score |
| GACGATATCAGATTGGAGACGTGCTAG | -0.135 z-score |
| CCTAGTTTTACTTTCTATCTGTGCTAG | 2.61 z-score |
| GACGGTATCGACGATCGGGACGTGCTA | -0.644 z-score |
| TCTCTTTCCTTACTTCCCAATGTGCTA | 2.6 z-score |
| AAAGTCTTCACTCTGCTGAAGTGCTAG | -0.107 z-score |
| TTCTAATTTACTTTGGTTGGGTGCTAG | 0.258 z-score |
| GACGATTTCTGTATCGAGACGTGCTAG | 0.561 z-score |
| TCATTTTTGCTTTCCTTACTGTGCTAG | 1.96 z-score |
| TCACCTTTTAAGTTCTCACTGTGCTAG | 0.876 z-score |

Sample 4
Target: ABI1, truncated, D143A, DHFR fusion (Arabidopsis thaliana)
Method: DHFR PCA, deep sequencing
Matrix: yeast
Setting: methotrexate growth selection, single substitutions
With: (+)-ABA 0.11 µM
Reference: wild-type fitted maximum
Reading: higher = stronger binding
Starting sequence: PYL1, truncated, DHFR fusion (Arabidopsis thaliana); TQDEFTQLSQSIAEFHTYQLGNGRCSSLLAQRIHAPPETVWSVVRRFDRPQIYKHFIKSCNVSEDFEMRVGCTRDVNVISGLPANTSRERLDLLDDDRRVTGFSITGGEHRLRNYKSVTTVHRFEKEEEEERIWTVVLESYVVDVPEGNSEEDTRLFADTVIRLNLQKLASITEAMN
| Substitution | relative binding score [%] |
| --- | --- |
| R32S | 12.3 |
| R49Q | 50.1 |
| V137E | -1.63 |
| N85H | 62.1 |
| L94I | 8.83 |
| N61T | 53.4 |
| D153Q | -0.742 |
| V136H | -0.405 |
| E147F | 15.5 |
| L29E | -1 |
| L82N | 12.9 |
| H16G | 1.18 |
| S59F | 1.34 |
| T106W | -4.74 |
| R99E | -5.33 |
| N61M | 29.7 |
| V40N | -11.7 |
| T39N | 5.57 |
| S87W | 31.5 |

Repeated from above (sample 4):
| Substitution | relative binding score [%] |
| --- | --- |
| T106W | -4.74 |
| L29E | -1 |
| N61T | 53.4 |
| N85H | 62.1 |
| S87W | 31.5 |
| V137E | -1.63 |
| R49Q | 50.1 |
| D153Q | -0.742 |
| S59F | 1.34 |
| H16G | 1.18 |
